Published values collected from several papers.
Each line is one published result; not all experiments were run side by side.
Organism: Bacillus subtilis

Structure (SMILES)	test	system	conditions	MIC
CN1C(=O)[C@@H]2NC(=O)[C@@H]3NC(=O)[C@@H](c4ccc(O)cc4)NC(=O)[C@H](NC(=O)C(NCc4ccccn4)c4ccc(O)cc4)Cc4c[nH]c5cc(ccc45)-c4cc3cc(c4O)Oc3ccc(cc3)C[C@H]1C(=O)N[C@@H](C(=O)O)c1ccc(O)c(c1)Oc1ccc2cc1 (some centres unmarked)	–	168, Mueller-Hinton broth	–	4 µg/mL
CC(C)C[C@H](NC(=O)[C@@H]1CSCC(=O)N[C@@H](CCCCN)C(=O)N[C@@H](CC(C)C)C(=O)N[C@@H](CCCCN)C(=O)N[C@H]2CCCCNC(=O)[C@H](CCCCN)NC(=O)[C@H](CC(C)C)NC(=O)[C@H](CCCCN)NC(=O)CSC[C@H](NC(=O)[C@H](CC(C)C)NC(=O)[C@H](CC(C)C)NC(=O)[C@H](CCCCN)NC2=O)C(=O)N[C@@H](CCCCN)C(=O)N[C@@H](CC(C)C)C(=O)N[C@@H](CCCCN)C(=O)N1)C(N)=O	–	BR 151	18 h	32 µg/mL
CC[C@H](C)[C@H](NC(=O)[C@H](CCCCN)NC(=O)[C@H](CC(N)=O)NC(=O)[C@H](Cc1c[nH]c2ccccc12)NC(=O)[C@H](Cc1ccccc1)NC(=O)[C@H](CCCCN)NC(=O)[C@H](CCCNC(=N)N)NC(=O)[C@H](CC(C)C)NC(=O)[C@H](Cc1c[nH]c2ccccc12)NC(=O)[C@H](CCCCN)NC(=O)[C@H](CCCNC(=N)N)NC(=O)[C@H](CC(C)C)NC(=O)CNC(C)=O)C(=O)N[C@@H](CCCCN)C(=O)N[C@@H](CCCNC(=N)N)C(N)=O	broth microdilution	ATCC 6633	–	3.12 µM
CC(C)C[C@H](NC(=O)[C@H](CC(C)C)NC(=O)[C@H](CCCCN)NC(=O)CNC(=O)[C@H](CC(C)C)NC(=O)[C@H](CC(C)C)NC(=O)[C@H](CO)NC(=O)[C@H](CC(C)C)NC(=O)[C@H](CC(C)C)NC(=O)[C@@H]1CCCN1C(=O)[C@H](CC(C)C)NC(=O)[C@H](CC(C)C)NC(=O)CN)C(N)=O	broth microdilution	–	–	3.12 µM
CC(C)C[C@@H]1NC(=O)[C@H](CCCCN)NC(=O)CSC[C@@H]2NC(=O)[C@H](CC(C)C)NC(=O)[C@H](CC(C)C)NC(=O)[C@H](CCCCN)NC(=O)[C@H](CCCCNC(=O)[C@H](CCCCN)NC1=O)NC(=O)[C@H](CCCCN)NC(=O)[C@H](CC(C)C)NC(=O)[C@H](CCCCN)NC(=O)CSC[C@@H](C(=O)N[C@@H](CCCCN)C(N)=O)NC(=O)[C@H](CC(C)C)NC(=O)[C@H](CC(C)C)NC(=O)[C@H](CC(C)C)NC2=O	–	BR 151	18 h	32 µg/mL
CC(C)[C@H](NC(=O)[C@@H](NC(=O)[C@H](CCCCN)NC(=O)CNC(=O)[C@@H](NC(=O)[C@@H](NC(=O)[C@H](CO)NC(=O)[C@@H](NC(=O)[C@@H](NC(=O)[C@@H]1CCCN1C(=O)[C@@H](NC(=O)[C@@H](NC(=O)CN)C(C)C)C(C)C)C(C)C)C(C)C)C(C)C)C(C)C)C(C)C)C(N)=O	broth microdilution	–	–	> 100 µM
CC(C)C[C@H](NC(=O)[C@@H]1CSCC(=O)N[C@@H](CCCCN)C(=O)N[C@@H](CC(C)C)C(=O)N[C@@H](CCCCN)C(=O)NCCCC[C@@H]2NC(=O)[C@H](CCCCN)NC(=O)[C@H](CC(C)C)NC(=O)[C@H](CCCCN)NC(=O)CSC[C@H](NC(=O)[C@H](CC(C)C)NC(=O)[C@H](CC(C)C)NC(=O)[C@H](CCCCN)NC2=O)C(=O)N[C@@H](CCCCN)C(=O)N[C@@H](CC(C)C)C(=O)N[C@@H](CCCCN)C(=O)N1)C(N)=O	–	BR 151	18 h	32 µg/mL
Cc1cccc(C)c1SCC1OC(OC2C(N)CC(N)C(OC3OC(CN)C(O)CC3N)C2O)C(O)C(N)C1O (centres unmarked)	–	168	–	37.5 µg/mL
CC[C@H](C)[C@H](NC(=O)[C@@H](Cc1ccccc1)NC)C(=O)OC[C@H](N)C(=O)N[C@H](CCC(N)=O)C(=O)N[C@@H](C(=O)N[C@H](C(=O)OC[C@H](N)C(=O)N[C@H]1C(=O)N[C@@H](C)C(=O)N[C@@H](C2CCCCC2)C(=O)N[C@@H]([C@@H](C)CC)C(=O)O[C@H]1C)[C@@H](C)CC)[C@@H](C)CC	broth microdilution	ATCC 6051, Mueller-Hinton broth	16 h, 37 °C	0.125 µg/mL
CC(C)C[C@@H]1NC(=O)[C@H](CC(C)C)NC(=O)[C@H](CCCCN)NC(=O)CSC[C@@H]2NC(=O)[C@H](CC(C)C)NC(=O)[C@H](CCCCN)NC(=O)[C@H](CCCCNC1=O)NC(=O)[C@H](CC(C)C)NC(=O)[C@H](CC(C)C)NC(=O)[C@H](CCCCN)NC(=O)CSC[C@@H](C(N)=O)NC(=O)[C@H](CC(C)C)NC(=O)[C@H](CCCCN)NC(=O)[C@H](CCCCN)NC2=O	–	BR 151	18 h	16 µg/mL
CN[C@@H]1[C@H](O)[C@H](NC)[C@H]2O[C@]3(O)[C@H](O[C@@H]2[C@H]1O)O[C@H](C)C[C@@]3(O)CNCc1ccccc1	–	ATCC 23857	–	3.1 µg/mL
N=C(N)NCCC[C@@H]1NC(=O)[C@H](CCCNC(=N)N)NC(=O)[C@H](CCCNC(=N)N)NC(=O)[C@H](CCCNC(=N)N)NC(=O)[C@H](Cc2c[nH]c3ccccc23)NC(=O)[C@H](CCCNC(=N)N)NC(=O)[C@H](CCCNC(=N)N)NC(=O)[C@@H](N)CCn2cc(nn2)C[C@@H](C(N)=O)NC1=O	–	CMCC 63501	24 h, 37 °C	31.2 µg/mL
CC[C@H](C)[C@H](N)C1=N[C@H](C(=O)N[C@@H](CC(C)C)C(=O)N[C@H](CCC(=O)O)C(=O)N[C@@H](Cc2ccccc2)C(=O)N[C@H]2CCCCNC(=O)[C@H](CC(N)=O)NC(=O)[C@@H](CC(=O)O)NC(=O)[C@H](Cc3c[nH]cn3)NC(=O)[C@@H](Cc3ccccc3)NC(=O)[C@H]([C@@H](C)CC)NC(=O)[C@@H](CCCN)NC2=O)CS1	–	168	18 h, 37 °C, with: ZnSO4 0.3 mM	64 µg/mL
CN1C(=O)[C@@H]2NC(=O)[C@@H]3NC(=O)[C@@H](c4ccc(O)cc4)NC(=O)[C@H](NC(=O)C(NCc4cc(Cl)cc(Cl)c4Cl)c4ccc(O)cc4)Cc4c[nH]c5cc(ccc45)-c4cc3cc(c4O)Oc3ccc(cc3)C[C@H]1C(=O)N[C@@H](C(=O)O)c1ccc(O)c(c1)Oc1ccc2cc1 (some centres unmarked)	–	168, Mueller-Hinton broth	–	4 µg/mL
